Assay results from different studies.
Lines come from different studies, so protocols differ. ± marks the error that the study gave.

SMILES | test | test system | setting | how to read | quantity | value
NC(=O)CCNC(=O)c1ccc(C2CCCCC2)cc1 | liver microsome stability | mouse liver microsomes | 1 µM | – | hepatic clearance | 76 mL/min/kg
CNC(=O)c1ccc(-c2cnc3ncc(Cc4ccc5ncccc5c4)n3n2)cc1F | refers to: Headache | gastric cancer patients | oral, 600 mg twice daily, expansion cohort, grade 3-4 | – | patients with adverse event | 0%
CNCc1ccc(-c2[nH]c3cc(F)cc4c3c2CCNC4=O)cc1 | – | human patients | oral, 840 mg twice daily, all grades | – | pulmonary embolism incidence | 0%
N#Cc1ccc2c(c1)[C@H]1CCCN(C(=O)c3ccc4[nH]cnc4c3)[C@H]1C2 | – | human, plasma | oral, 80 mg once daily, steady state | – | Vz/F steady state | 457 L
O=C(Nc1nc2cccc(-c3ccc(CN4CCS(=O)(=O)CC4)cc3)n2n1)C1CC1 | refers to: hypotension | human rheumatoid arthritis patients | oral, 150 mg once daily, 4 weeks, regardless of relatedness | – | treatment-emergent adverse events | 0%
C[C@@H](N)COc1ccc(-c2cnc3ccc(N[C@H](C)c4cccc(F)c4)nn23)cc1 | – | female Balb/c nude mouse | 100 mg/kg once daily, 12 h (tau/2), steady state | – | unbound plasma concentration | 236 ± 22 nM
CCN1/C(=C/C(C)=O)Sc2ccc(F)cc21 | – | cynomolgus monkey | oral, 10 mg/kg, 1 h post-dose | reference: pre-dose | heart rate change | 107 ± 18.9%
Cn1ncnc1[C@H]1c2n[nH]c(=O)c3cc(F)cc(c23)N[C@@H]1c1ccc(F)cc1 | – | human patients, plasma | oral, 400 µg/m2 twice daily, day 1, monotherapy, dose level DL2, median | – | AUC(0-8h) | 7.3 ng·h/mL
CN1CCN(C(=O)c2ccc(C3CCCCC3)cc2)CC1=O | hepatocyte stability | cryopreserved mouse hepatocytes | 1 µM | – | hepatic clearance | 48 mL/min/kg
CCO[C@H]1CCN(Cc2c(OC)cc(C)c3[nH]ccc23)[C@H](c2ccc(C(=O)O)cc2)C1 | – | human severe hepatic impairment, plasma | oral, 200 mg single dose, geometric mean | – | unbound AUC(0-12) | 9260 ng·h/mL
COc1cccc(OC)c1-c1cc(C(=O)NC2(C(=O)O)C3CC4CC(C3)CC2C4)nn1-c1ccc(C(=O)N(C)CCCN(C)CCCN(C)C(=O)CN2CCN(CC(=O)[O-])CCN(CC(=O)[O-])CCN(CC(=O)[O-])CC2)cc1C(C)C.[177Lu+3] (stereo not shown) | – | mouse, HT-29 xenograft, liver | 168 h post injection | – | tissue uptake | 0.244 %ID/g
Cc1cc(C)c(CNC(=O)c2cc(Cl)c3c(c2C)O[C@@](C)([C@H]2CC[C@H](N(C)C)CC2)O3)c(=O)[nH]1 | ultracentrifugation | human plasma | 10000 ng/mL, 160 min | – | fu | 0.22
CCO | – | healthy Chinese men | 0.5 g/kg, supine or semi-supine, together with: placebo | reference: baseline | maximal decrease in diastolic BP | -14.4 ± 7.82 mmHg
CCc1cc(C(=O)NC)c2nccc(N3CCc4c(cc(Cn5ccnc5)cc4-c4cn(C)nc4C(F)(F)F)C3=O)c2c1 | – | Sprague Dawley rats | oral, 100 mg/kg once daily, 7 days | – | serum ALP activity | 416 ± 88.7 U/L
COc1cc(C(=O)N2CCC3(CC2)CC(=O)c2c(cnn2C(C)C)C3)cc(-c2ccc(C(=O)O)cc2)n1 | refers to: HDL cholesterol | human, fasting serum | 1 mg every 12 h, day 13, adjusted geometric mean | reference: baseline | percentage change from baseline | -3.5%
O=C(N[C@H](Cc1c[nH]c2ccccc12)C(=O)Nc1ccncc1)c1ccc(N2CCN(c3ccc(F)c(F)c3)CC2)cc1F | – | Swiss Webster mouse, female, plasma | oral, 50 mg/kg, 8 h, 20% HPβCD vehicle | – | concentration | 60 nM
COc1ncc(-c2nc3c(n2C(C)C)[C@H](c2ccc(Cl)cc2)N(c2cc(Cl)cn(C)c2=O)C3=O)c(OC)n1 | LC-MS/MS | human, plasma | oral, 4 mg, cycle 1 day 8, low-dose arm | – | AUC(0-last) | 140 ng·h/mL
O=C(COc1ccc(Cl)cc1)NC12CC(c3nnc([C@H]4C[C@@H](OC(F)(F)F)C4)o3)(C1)C2 | abdominal discomfort | human, both sexes | oral, 100 mg, single ascending dose, fed | reference: subjects | treatment-emergent adverse events | 16.7%
CNCc1ccc(-c2cc(-c3nc(-c4ccc(S(=O)(=O)C(C)C)cc4)cnc3N)on2)cc1 | – | female BALB/c mice | single dose, dose not given, 48 h, together with: total body irradiation 6 Gy | – | spleen weight relative to body weight | 0.202%
Cl.[2H]C([2H])([2H])CC(=O)c1cnc(NC(=O)C2CC2)cc1Nc1cccc(-c2ncn(C([2H])([2H])[2H])n2)c1OC | – | human, fed, multiple dose | oral, 60 mg once daily, tablet, day 14, geometric mean | – | AUC(0-tau) | 4070 ng·h/mL

SMILES | test | test system | setting | how to read | quantity | value
Cc1ccc([C@@H]2O[C@H](CO)[C@@H](O)[C@H](O)[C@H]2O)cc1Cc1ccc(-c2ccc(F)cc2)s1 | refers to: inorganic phosphorus | Japanese type 2 diabetes patients | 200 mg, day 6, 24 h urine collection | reference: baseline | urinary phosphate excretion change | 58.7 mg
CC(C)NCCCC[C@@H]1NC(=O)[C@H](Cc2ccc(O)cc2)NC(=O)[C@H](Cc2ccccc2)NC(=O)CC[C@H](C(=O)N[C@@H](CCCCNC(C)C)C(=O)N[C@@H](CCCCNC(=O)[C@H](CCC(=O)O)NC(=O)[C@H](CCC(=O)O)NC(=O)[C@H](CCC(=O)O)NC(=O)CN2CCN(CC(=O)O)CCN(CC(=O)O)CCN(CC(=O)O)CC2)C(N)=O)NC(=O)CNC(=O)[C@H](Cc2ccc3ccccc3c2)NC(=O)[C@@H](CCCNC(=N)N)NC1=O [gallium-68 labelled] | – | mouse with PC-3 xenograft, kidney | intravenous, 1 h | – | tissue uptake | 4.28 %ID/g
O=C(O)CCCOc1ccc([18F])cc1-c1cc(-c2ccccc2C(F)(F)F)n(-c2ccccc2)n1 | 18F biodistribution | male ddY mouse, whole blood | intravenous, 2.1 MBq, 15 min | – | blood radioactivity | 0.12 ± 0.01 SUV
Cc1ccc(Sc2ccccc2N2CCNCC2)c(C)c1 | refers to: Thirst | healthy adult women | oral, 10 mg daily, 12 days | – | participants with TEAE | 16.7%
C[C@]12CC[C@@H]3c4ccc(O)cc4CC[C@H]3[C@@H]1CCC2=O | – | whole cow milk | 2000 nM nominal | – | dose fraction in milk fat | 74.2%
CC(C)(O)c1cnc2ncc(-c3ccc(F)c(-c4c(F)cccc4C#N)c3)n2n1 | responding, conflict procedure | rhesus monkey | intravenous, up to 1.0 mg/kg | – | non-suppressed response rate | no effect
CN1CC(=O)NC1=N | ultrafiltration | normal rat serum | 37 °C | – | serum protein binding | 13 ± 7%
O=C(O)CCC(=O)O.[2H]C([2H])([2H])Oc1cc(C)c2[nH]ccc2c1CN1CC[C@@H](C2CC2)C[C@H]1c1ccc(C(=O)O)cc1 | – | healthy Chinese subjects | 400 mg, single ascending dose | – | TEAE hyponatremia | 0%
CCCCC[C@H](O)CC[C@@H]1[C@H]2Cc3cccc(OCC(=O)O)c3C[C@H]2C[C@H]1O | LC-MS/MS | Japanese PAH patients ≥56.7 kg, plasma | inhaled, 54 µg | – | geometric mean AUC(0-last) | 0.83 ng·h/mL
C[C@@H](Nc1cc(F)cc(F)c1)c1cc(C(=O)N(C)C)cc2c(=O)cc(N3CCOCC3)oc12 | refers to: Hypersensitivity | advanced solid tumour patients | oral, dose not given, dose expansion | – | related serious adverse events | 0%
CC(C)(C(=O)N1CCOc2c(C#N)cncc2C1)C(F)F | refers to: back pain | human | oral, 10 mg, CSF pharmacokinetic cohort | – | subjects with adverse event | 16.7%
COc1ccnc(C(=O)O)c1O | soil adsorption | tested soils | geometric mean | – | KFoc | 8870 mL/g
CSCC[C@H](NC(=O)[C@H](CCCCN)NC(=O)[C@H](CCCNC(=N)N)NC(=O)[C@H](CO)NC(=O)[C@H](Cc1c[nH]c2ccccc12)NC(=O)[C@H](CCCNC(=N)N)NC(=O)[C@H](CC(C)C)NC(=O)[C@@H](N)CCSC)C(=O)N1CCC[C@H]1C(=O)N[C@@H](CS)C(=O)N[C@H](C(=O)N[C@@H](CO)C(N)=O)C(C)C | 12G5 competition, SUP-T1 cells | human plasma | concentration not given, 8 h | – | remaining activity | 1 ± 0.3%
C[C@@H]1CCO[C@H]2Cn3cc(C(=O)NCc4ccc(F)cc4F)c(=O)c(O)c3C(=O)N12 | population PK, post-hoc | children, 25 to <30 kg, plasma | oral, 22.4 mg granules, 24 h, steady state, geometric mean | – | plasma concentration | 938 ng/mL
COc1ccc(/N=N/c2cccc(CN3CCC(C(=O)NC(C)(C)C)CC3)c2)cc1 | – | DMSO | 25 µM, 25 °C | – | absorption maximum, cis isomer | 444 nm
N#CCC(=O)Nc1ccc([C@H]2[C@@H](F)[C@@H](F)C[C@@H](F)[C@H]2F)cc1 | liver microsome stability | mouse liver microsomes | 1 µM | – | hepatic clearance | 25 mL/min/kg
Cc1ccc(C(=O)N(CCCN)C(c2nc3snc(C)c3c(=O)n2Cc2ccccc2)C(C)C)cc1 (stereo not shown) | – | human patients | intravenous, 18 mg/day | – | patients with CTCAE grade ≥3 events | 100%
CNc1ccc(-c2nc3ccc(O)cc3s2)cc1 [carbon-11 labelled] | ex vivo biodistribution | B6SJL mouse, normal, skin | intravenous, 30 min | – | SUV | 0.341 ± 0.317
COc1ccc2[nH]c([S+]([O-])Cc3ncc(C)c(OC)c3C)nc2c1 (stereo not shown) | – | healthy Chinese volunteers, plasma | oral, 20 mg, fasted, CYP2C19 poor metabolizers | – | Cmax | 1500 ± 104 ng/mL
COCCN(C)C(=O)c1ccc([C@H]2[C@@H](F)[C@@H](F)C[C@@H](F)[C@H]2F)cc1 | hepatocyte stability | cryopreserved rat hepatocytes | 1 µM | – | hepatic clearance | 33 mL/min/kg

SMILES | test | test system | setting | how to read | quantity | value
Cc1ccc(OC2CCN(c3c(C#N)cnc4ccc(F)cc34)CC2)cn1 | – | human liver microsomes | – | – | intrinsic clearance (scaled) | 58 mL/min/kg
C=CCn1c(=O)c2cnc(Nc3ccc(N4CCN(C)CC4)cc3)nc2n1-c1cccc(C(C)(C)O)n1 | – | human patients | oral, 200 mg once daily, day 17, cycle 1, together with: durvalumab 1500 mg iv | – | AUC(0-10 h) | 4.35 µM·h
O=C(NCCc1cccnc1)c1ccc(C2CCCCC2)cc1 | liver microsome stability | rat liver microsomes | 1 µM | – | hepatic clearance | 50 mL/min/kg
CN1C(=O)[C@@H](NC(=O)c2nnc(Cc3ccccc3)[nH]2)COc2cccnc21 | phase I single ascending dose | human, male and female | oral, 10 mg, fasted | – | TEAE leading to permanent discontinuation | 0%
CNC(=O)c1ccc(-c2cnc3ncc(Cc4ccc5ncccc5c4)n3n2)cc1F | – | Japanese patients | oral, 400 mg twice daily, grade 3/4 | – | Teratogenicity patients | 0%
Cc1cc(C(=O)NC(C)(C)COc2cccc3c2C(N)=NS(=O)(=O)N3)cc(C)n1 | LC-MS | Sprague-Dawley rat liver microsomes | 10 µM, 60 min, pH 7.4, together with: NADPH | reference: time 0 | remaining parent compound | 101%
Cc1nc2ccc(F)cc2n1-c1nc(N)c(F)c(Nc2ccc(C(F)(F)F)cc2)n1 | – | human patients, plasma | oral, 300 mg twice weekly, cycles 1 and 2 pooled | – | dose-normalized AUC(0-inf) | 60.1 ng·h/mL/mg
O=C1NCCc2nc(OCc3cccc(F)c3)ccc21 | refers to: loss of Placing | Sprague-Dawley rat male | oral, 100 mg/kg, 1 h | direction not given | Irwin test score | 0
CC(=O)N1CC(C(=O)Nc2ccc(C3CCCCC3)cc2)C1 | liver microsome stability | mouse liver microsomes | 1 µM | – | hepatic clearance | 46 mL/min/kg
C=CC(=O)Nc1cc(Nc2nccc(-c3cn(C4CC4)c4ccccc34)n2)c(OC)cc1N(C)CCN(C)C | freeze-thaw stability | rat plasma | 40 ng/mL, three freeze-thaw cycles | reference: nominal concentration | relative error | -7.9%
NC1(C(=O)N[C@@H](CCO)c2ccc(Cl)cc2)CCN(c2nc[nH]c3nccc2-3)CC1 | – | metastatic CRPC patients | 320 mg b.i.d., grade 3 to 4, treatment-related, together with: enzalutamide 160 mg daily | – | incidence of Somnolence | 0%
COc1c(Nc2cc(C(F)(F)F)cc(C(F)(F)F)c2)c(=O)c1=O | chemical stability, HPLC-MS | borate buffered saline | pH 10.2, no N-acetyl-lysine | – | degradation rate constant | 0.1 h⁻¹
CCOc1c([C@H](C)n2nc(C)c3c(N)ncnc32)cc(Cl)c(F)c1[C@@H]1CNC(=O)C1 | refers to: QTcF ≤450 ms | previously treated B-cell malignancy | oral, 20 mg once daily, baseline QTcF ≤450 ms | – | ECG observations | 95.8%
COc1cccc(-c2n[nH]c(SCc3ccccn3)n2)c1OC | – | Sprague-Dawley rats, both sexes | oral dietary, 100 mg/kg/day, day 90, 24 h | – | plasma concentration | 3250 ng/mL
O=C(Nc1ccc(C2CCCCC2)cc1)[C@H]1CC1(F)F | liver microsome stability | mouse liver microsomes | 1 µM | – | hepatic clearance | 86 mL/min/kg
O=C(Nc1ccc(OC(F)(F)Cl)cc1)c1cnc(N2CC[C@@H](O)C2)c(-c2ccn[nH]2)c1 | per treatment cycle, refers to: absolute neutrophil decrease | human patients | oral, dose not given, 28 day cycle | – | grade ≥3 event rate | 4.3%
CN1CCN(C(=O)c2ccc(C3CCCCC3)cc2)CC1 | liver microsome stability | human liver microsomes | 1 µM, without NADPH | – | hepatic clearance | 3.9 mL/min/kg
CCCCCNC(=O)N1CCC(CN(Cc2ccc(Cl)cc2)Cc2ccc([N+](=O)[O-])s2)C1 (stereo not shown) | refers to: LY% | C57BL/6 mouse, blood | 100 mg/kg twice daily, 7 days | – | blood cell fraction | 73.7 ± 4.5%

Repeated from above:
SMILES | test | test system | setting | how to read | quantity | value
Cc1ccc(OC2CCN(c3c(C#N)cnc4ccc(F)cc34)CC2)cn1 | – | human liver microsomes | – | – | intrinsic clearance (scaled) | 58 mL/min/kg
C=CCn1c(=O)c2cnc(Nc3ccc(N4CCN(C)CC4)cc3)nc2n1-c1cccc(C(C)(C)O)n1 | – | human patients | oral, 200 mg once daily, day 17, cycle 1, together with: durvalumab 1500 mg iv | – | AUC(0-10 h) | 4.35 µM·h
CNC(=O)c1ccc(-c2cnc3ncc(Cc4ccc5ncccc5c4)n3n2)cc1F | – | Japanese patients | oral, 400 mg twice daily, grade 3/4 | – | Teratogenicity patients | 0%
